Assay results pooled from the literature.
Numbered parts are unrelated; each lists some results of a single study.

Block 1
Target: RNA binding protein fox-1 homolog 2, RRM domain, GST-SBP tag (RBFOX2, Homo sapiens, UniProt O43251-10, residues 100-194)
Method: RNA Bind-n-Seq
Form: RNA
Matrix: in vitro
Concentration: 365 nM
Setting: natural RNA segment, single round, ends assumed
Relative to: no-protein control
Direction: higher = stronger binding
Target sequence (chain): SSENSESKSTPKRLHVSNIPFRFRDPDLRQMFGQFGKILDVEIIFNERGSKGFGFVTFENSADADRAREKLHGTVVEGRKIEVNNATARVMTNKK
| Sequence | RBNS enrichment (R) |
| --- | --- |
| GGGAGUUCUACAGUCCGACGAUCUUUGGCCUGGUCCCAGGGGCCAGAGCUGGCAGUGGCUCCCAGAGCUCUGUCCAGCCACAAGUUUGAGCAGAGGAUGUGGGGACCUCCCACAGGACACUGCUCCAACCCAAUGGAAUUCUCGGGUGCCAA | 0.284 |
| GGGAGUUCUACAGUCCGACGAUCAUCUGUCUGUGUGGCUUGUUCUGUGGGCCUGAACUCCUAAGCACAGGUCGGGGGUAAAACUAGGAUGCUAGUAGGUGUUGUCUAUAGAGAGGCGCUGAGGAAGUGAGCUGUGGAAUUCUCGGGUGCCAA | 1.21 |
| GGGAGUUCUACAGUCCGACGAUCCUAGAGAACUAUGUUCUUCCCUGACUUUAGGGAAGGUGAAUGUGUUCCCGUCCUCCCGCAGUCAGAAAGGAGACUCUGCCUCCCUCCUCCUCACUGAGUGCCUCAUCCUAUGGAAUUCUCGGGUGCCAA | 1.07 |
| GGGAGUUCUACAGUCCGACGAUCAAUGAACUGUGUAAUAAGAGAGGCAGAGAAAAUGCAGGACUCCAGUUGAGAAGGCUUAAUCUCCUGUUUACAGCCCACAAUGAUUCUGUCCCAUGGUGUCCUGGCUAUAUUGGAAUUCUCGGGUGCCAA | 0.671 |
| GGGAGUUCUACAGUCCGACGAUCUCGGCAGCGUAGCCAGCUGCUGCUUGAGGCCAUGGCUCGUCCCCGGAGUUGGGGGUACCCGUUGCAGAGCCAGGGACAUGAUGCAGGCGAAGCUUGGGAUCUGGCCAAGUUGGAAUUCUCGGGUGCCAA | 1.36 |
| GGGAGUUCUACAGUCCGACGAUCACAAUGGUAAUUUGAUAUAUGGUAUUUAUAUUGGCAUUUUUCAACCCAGUGUCACUAGAUGUCACACACAUUUGUGGUGCUUUGAUGUUUGCAAGUCUAACCUCUGAACAUGGAAUUCUCGGGUGCCAA | 0.346 |
| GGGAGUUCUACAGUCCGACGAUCAUAUUUAAAACCCACAACUAAAACACAUCUGCAUAAUAGUGUUUGUUUGUUGAGAGGAUUUCCUGAGACUGGUUUGGGUCUCCCUGCAUGACAGUCCCCCAGAAACUUGGUGGAAUUCUCGGGUGCCAA | 49.1 |

Block 2
Target: Histone acetyltransferase KAT6A, both winged helices, GST fusion (KAT6A, Homo sapiens, UniProt Q92794, residues 1-181)
Method: protein binding microarray
Form: double-stranded DNA, one strand shown
Matrix: in vitro
Concentration: not given
Setting: 8-mer, flanks averaged, mean of 2 arrays, mostly near background
Relative to: not given
Direction: higher = stronger binding
Residues (chain): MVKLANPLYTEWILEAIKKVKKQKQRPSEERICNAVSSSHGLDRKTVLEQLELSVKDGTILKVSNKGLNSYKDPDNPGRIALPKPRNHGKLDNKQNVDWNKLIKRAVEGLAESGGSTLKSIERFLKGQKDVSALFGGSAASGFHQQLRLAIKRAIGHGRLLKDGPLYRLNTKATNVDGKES
| Sequence | E-score |
| --- | --- |
| GGTCAAAC | 0.0846 |
| GGCGAACA | 0.218 |
| AAGTACTA | -0.0534 |
| CATAACCA | -0.17 |

Block 3
Target: Sal-like protein 4, full length isoform A (SALL4, Homo sapiens, UniProt Q9UJQ4, residues 1-1053)
Chain of UniProt Q9UJQ4 (whole entry, looked up): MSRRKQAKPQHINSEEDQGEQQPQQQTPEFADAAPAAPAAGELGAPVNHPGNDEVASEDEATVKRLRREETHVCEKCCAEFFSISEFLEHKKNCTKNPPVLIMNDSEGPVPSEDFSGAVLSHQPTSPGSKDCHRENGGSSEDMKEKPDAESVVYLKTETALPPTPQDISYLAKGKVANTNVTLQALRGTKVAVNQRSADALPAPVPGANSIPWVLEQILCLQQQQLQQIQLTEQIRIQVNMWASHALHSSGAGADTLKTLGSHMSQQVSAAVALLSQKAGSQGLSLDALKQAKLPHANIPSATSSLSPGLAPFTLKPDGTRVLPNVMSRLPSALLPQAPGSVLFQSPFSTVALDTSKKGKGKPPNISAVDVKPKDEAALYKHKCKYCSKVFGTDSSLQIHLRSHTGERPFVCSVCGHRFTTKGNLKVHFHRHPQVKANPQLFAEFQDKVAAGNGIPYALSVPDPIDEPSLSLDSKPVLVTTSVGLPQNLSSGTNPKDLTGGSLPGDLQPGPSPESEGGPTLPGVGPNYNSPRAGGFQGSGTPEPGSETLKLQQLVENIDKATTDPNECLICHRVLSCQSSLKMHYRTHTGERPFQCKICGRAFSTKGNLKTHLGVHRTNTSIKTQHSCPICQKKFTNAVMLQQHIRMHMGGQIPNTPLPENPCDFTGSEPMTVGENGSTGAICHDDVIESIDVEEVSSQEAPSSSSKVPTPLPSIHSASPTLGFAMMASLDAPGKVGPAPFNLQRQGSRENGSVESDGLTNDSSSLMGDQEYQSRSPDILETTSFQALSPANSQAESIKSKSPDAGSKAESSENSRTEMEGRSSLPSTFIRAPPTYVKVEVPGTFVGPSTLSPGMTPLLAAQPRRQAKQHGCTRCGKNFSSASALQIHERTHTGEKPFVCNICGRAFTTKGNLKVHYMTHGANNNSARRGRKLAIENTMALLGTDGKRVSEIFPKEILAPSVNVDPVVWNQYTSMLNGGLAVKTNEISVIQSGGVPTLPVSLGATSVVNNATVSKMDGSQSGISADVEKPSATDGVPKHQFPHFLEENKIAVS
Method: universal PBM
Form: double-stranded DNA, one strand shown
Matrix: in vitro
Concentration: 600 nM
Setting: 8-mer, flanks averaged, mean of replicates
Direction: higher = stronger binding
| Sequence | E-score |
| --- | --- |
| AAGAAAAC | 0.105 |
| GTTTTTTA | 0.201 |
| CTTTTGTC | 0.00915 |
| AATCTCGC | 0.127 |
| CCAGGCTC | -0.234 |

Further values, each from its own experiment
| Molecule | target | test | test system | setting | scale | endpoint | value |
| --- | --- | --- | --- | --- | --- | --- | --- |
| PhoQ, residues 284 288 289 292 302 303 TNSAEL | PhoP, residues 12 14 15 18 19 IFFTR (Escherichia coli, UniProt P23836) | Sort-seq, measured: YFP reporter | E. coli | PhoQ-PhoP variant library, with: 10 µM Mg2+ | relative to: high Mg2+ state, higher = stronger signaling | fold induction | 20.7 |

A few entries again (block 2):
| Sequence | E-score |
| --- | --- |
| GGTCAAAC | 0.0846 |
| AAGTACTA | -0.0534 |
